Results of several laboratories.
A part holds a random share of what one study measured. “And” joins repeats or separate records; there may be more than shown.
Chain of UniProt P62344 (whole entry, looked up): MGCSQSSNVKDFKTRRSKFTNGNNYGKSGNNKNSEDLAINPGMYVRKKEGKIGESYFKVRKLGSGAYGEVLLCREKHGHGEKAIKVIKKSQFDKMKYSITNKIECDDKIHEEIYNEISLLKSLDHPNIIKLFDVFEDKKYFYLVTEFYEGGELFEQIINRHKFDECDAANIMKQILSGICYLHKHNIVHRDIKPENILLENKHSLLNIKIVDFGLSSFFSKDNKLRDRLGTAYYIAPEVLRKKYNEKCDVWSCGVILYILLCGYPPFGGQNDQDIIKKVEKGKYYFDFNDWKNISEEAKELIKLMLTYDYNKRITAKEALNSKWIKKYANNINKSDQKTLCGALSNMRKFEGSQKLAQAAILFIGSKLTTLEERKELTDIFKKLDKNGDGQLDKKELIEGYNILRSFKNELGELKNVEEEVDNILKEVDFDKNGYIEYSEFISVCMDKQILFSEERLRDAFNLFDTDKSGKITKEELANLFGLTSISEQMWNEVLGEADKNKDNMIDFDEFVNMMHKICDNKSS
Chain of UniProt P61075 (whole entry, looked up): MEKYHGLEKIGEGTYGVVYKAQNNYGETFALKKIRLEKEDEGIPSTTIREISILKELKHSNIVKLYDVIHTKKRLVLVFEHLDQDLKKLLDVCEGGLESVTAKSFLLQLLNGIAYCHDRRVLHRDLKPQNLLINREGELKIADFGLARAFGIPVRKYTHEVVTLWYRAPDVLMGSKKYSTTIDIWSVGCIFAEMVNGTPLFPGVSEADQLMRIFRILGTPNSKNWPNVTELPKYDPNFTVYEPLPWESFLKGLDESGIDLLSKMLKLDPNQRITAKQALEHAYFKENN

Sample 1 — cell line: mouse MPNST tumor cells; method: high-content nuclear imaging; refers to: cell number; tested at: 10 µM; time: 12 h; setting: mean of 2 replicates; relative to: plate mean; reading: higher = more cells
Compound | nuclei count
O=C(c1ccc(-c2cccc(C(F)(F)F)c2)o1)N1CCN2CCC1CC2 | 2.31 z-score
C[N+](C)(C)CCCCCCCCCC[N+](C)(C)C | 0.902 z-score
O=c1[nH]oc2c1CCNC2 | 1.99 z-score and 1.86 z-score
CN(C)NC(=O)CCC(=O)O | 2.12 z-score
CN1C(=O)CCS(=O)(=O)C1c1ccc(Cl)cc1 (centres unmarked) | 1.13 z-score and 0.909 z-score and 1.22 z-score
CC(=O)Nc1ccc(Cc2ccc(NC(C)=O)cc2)cc1 | 3.36 z-score
CC(=O)OC1CN2CCC1CC2 (centres unmarked) | 0.585 z-score
O=S(=O)(c1ccccc1F)N1CCOc2c(N3CCNCC3)cccc21 | 3.56 z-score
CC(C)=CCCN1CCC(NC(=O)[C@](O)(c2ccccc2)C2CCCC2)CC1 | 0.738 z-score

Sample 2 — host: C57BL/6 CES1-/- mouse, both sexes
Structure (SMILES): CC(=O)N[C@@H](Cc1c[nH]c2ccccc12)C(=O)N[C@@H](CCC(=O)C=[N+]=[N-])C(=O)OC(C)C
conditions | body weight
0.3 mg/kg, day 8 | 100%
0.3 mg/kg, day 11 | 100% and 92.9% and 95.7%
0.3 mg/kg, day 10 | 104% and 96.4% and 100% and 95.7%
0.3 mg/kg, day 17 | 100% and 96.4% and 95.7% and 104%
1 mg/kg, day 8 | 95.5% and 100% and 93.9%
0.1 mg/kg, day 11 | 96.2% and 109% and 100% and 96.6% and 105%

Single results of other studies
pknB: Serine/threonine-protein kinase PknB (pknB, Mycobacterium tuberculosis, UniProt P9WI81)
Chain of UniProt P9WI81 (whole entry, looked up): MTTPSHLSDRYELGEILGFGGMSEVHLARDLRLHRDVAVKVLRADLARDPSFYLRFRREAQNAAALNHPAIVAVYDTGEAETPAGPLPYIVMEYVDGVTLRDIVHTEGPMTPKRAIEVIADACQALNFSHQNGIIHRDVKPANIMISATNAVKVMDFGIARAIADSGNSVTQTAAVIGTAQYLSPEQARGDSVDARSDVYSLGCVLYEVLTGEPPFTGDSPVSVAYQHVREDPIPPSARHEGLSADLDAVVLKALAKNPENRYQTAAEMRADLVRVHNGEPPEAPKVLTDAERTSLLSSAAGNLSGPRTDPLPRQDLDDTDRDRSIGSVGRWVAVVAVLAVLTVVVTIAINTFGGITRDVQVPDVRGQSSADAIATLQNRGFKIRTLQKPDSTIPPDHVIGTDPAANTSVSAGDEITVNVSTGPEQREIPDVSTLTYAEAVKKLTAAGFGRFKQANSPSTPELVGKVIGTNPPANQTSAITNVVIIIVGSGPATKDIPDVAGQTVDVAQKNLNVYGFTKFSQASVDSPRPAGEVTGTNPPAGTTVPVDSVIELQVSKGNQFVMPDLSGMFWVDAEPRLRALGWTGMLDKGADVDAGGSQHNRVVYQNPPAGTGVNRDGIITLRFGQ
Structure (SMILES) | target or system | test | test system | conditions | quantity | value
CCS(=O)(=O)c1cc2cc(C[C@](O)(CC(C)(C)c3ccc(F)cc3C(N)=O)C(F)(F)F)[nH]c2cn1 | pknB | cell-free assay, competition with immobilised ligand | – | 1 µM | remaining binding | 95%
COc1ccc2c(c[n+](C)c3c4cc5c(cc4ccc23)OCO5)c1OC | – | – | human, microsomes or S9 | 2 µM, 0.5 h | remaining compound | 73.7%
CO[C@@H](C)c1c(Nc2ccc([C@@H](N(C)C(=O)C3CCS(=O)(=O)CC3)C(F)(F)F)cc2)cnc2cc(Cl)nn12 | pknB | cell-free assay, competition with immobilised ligand | – | 1 µM | remaining binding | 100%
N#CC1(c2ccccn2)CCN(Cc2cc(C(=O)N3CCCC3)c(=O)n3ccccc23)CC1 | CRK2 (Plasmodium falciparum, UniProt P61075) | cell-free assay, competition with immobilised ligand | – | 1 µM | remaining binding | 100%
O=C(NCCCC1CCCCC1)c1ccc(CNC(=O)c2cnn(-c3ccccc3)c2C(F)(F)F)cc1 | CDPK1 (Plasmodium falciparum, UniProt P62344) | cell-free assay, competition with immobilised ligand | – | 0.1 µM | remaining binding | 100%

Some of these lines once more (sample 1):
Compound | nuclei count
O=C(c1ccc(-c2cccc(C(F)(F)F)c2)o1)N1CCN2CCC1CC2 | 2.31 z-score
C[N+](C)(C)CCCCCCCCCC[N+](C)(C)C | 0.902 z-score
O=c1[nH]oc2c1CCNC2 | 1.99 z-score and 1.86 z-score
